# Published values gathered from unrelated publications.
# Compare with care: the assays were run in different laboratories.
SMILES,cell line,test,conditions,scale,measurement,result
CC(C)Cc1ccc(C(C)C(=O)[O][Pt]([NH2])([NH2])([Cl])([Cl])[O]C(=O)C(Cl)Cl)cc1 (stereo not shown),PSN1,,"1 µM, 24 h",,depolarised mitochondria cells,25 to 30%
O=C1c2c(O)cc(O)cc2-c2c(-c3ccc(O)cc3)oc3cc(O)cc1c23,LCC2 CHIP shRNA knockdown,label-free MS proteomics,"10 µM, 24 h",,upregulated protein count,334
COc1cc(CNC(=O)C[C@H](C)CCC=C(C)C)ccc1OCc1cn(-c2ccc(Cl)c(Cl)c2)nn1,SK-MEL-5 melanoma cells,SRB,"10 µM, 48 h",,growth percent,71.9%
COC(=O)CC[C@@H](NC(=O)[C@@H](Cc1ccc(OP(=O)(O)O)cc1)NC(=O)[C@@H](Cc1ccccc1)NC(=O)[C@@H](Cc1ccccc1)NC(=O)Cc1ccc2ccccc2c1)C(=O)OC,SAOS-2,MTT,"10 µM, added: alkaline phosphatase 10 U/mL",,viability,69%
COc1cc(CNC(=O)C[C@H](C)CCC=C(C)C)ccc1OCc1cn(-c2ccc(C#N)cc2)nn1,SK-OV-3 ovarian cancer cells,SRB,"10 µM, 48 h",,growth percent,82.4%
CC(=O)O[C@H]1C(=O)[C@]2(C)[C@@H](OC(=O)[C@H](N)CSC3CC(=O)N(CCC(=O)Nc4ccc(-c5ccc(/N=N/c6ccc7c(S(=O)(=O)O)cc(S(=O)(=O)O)c(N)c7c6O)c(C)c5)cc4C)C3=O)C[C@H]3OC[C@@]3(OC(C)=O)[C@H]2[C@H](OC(=O)c2ccccc2)[C@]2(O)C[C@H](OC(=O)[C@H](O)[C@@H](NC(=O)c3ccccc3)c3ccccc3)C(C)=C1C2(C)C (stereo partly shown),OVCAR-3,annexin V/PI flow cytometry,"concentration not given, 24 h",,early apoptotic cells,31.5%
COc1cc(CNC(=O)C[C@H](C)CCC=C(C)C)ccc1OCc1cn(-c2ccc(F)cc2)nn1,CAKI-1,SRB,"10 µM, 48 h",,growth percent,81.8%
O=C1OCC2=C1C(c1cccc(Br)c1)C1=C(N2)C(=O)c2ccccc2C1=O (stereo not shown),SK-LU-1 cells,annexin V/PI,"0.16 µM, 24 h",,early apoptotic cells,8.48%
CC/C=C\C/C=C\C/C=C\C/C=C\C/C=C\C/C=C\CCC(=O)Nc1ccn(C2OC(CO)C(O)C2(F)F)c(=O)n1 (stereo not shown),HOP-92,NCI60 screen,,,TGI,34.5 µM
COc1cc(CNC(=O)C[C@H](C)CCC=C(C)C)ccc1OCc1cn(-c2ccc(Cl)cc2Cl)nn1,HOP-92,SRB,"10 µM, 48 h",,growth percent,-3.27%
COc1ccc(C(=O)n2c(C)c(Cc3ccccc3O[C@@H](C)C(=O)O)c3cc(OC(F)(F)F)ccc32)cc1,3T3-L1 preadipocytes,"qRT-PCR, measured: adiponectin",concentration not given,,mRNA level,increased
CC(Cc1ccc(Cl)cc1)=C(c1ccc(Cl)cc1)c1ccc(OCCN(C)C)cc1,HOP-92,"cell growth or viability, SRB",,,GI50,1.62 µM
N=C(N/N=C/c1ccc(Cl)cc1)N/N=C/c1ccc(Cl)cc1,PANC-1,crystal violet,72 h,baseline: IC50 IMR-90 over IC50 PANC-1,selectivity ratio,0.7
CC(C)NCC(O)c1ccc(O)c(O)c1 (stereo not shown),hiPSC cardiac tissues 3D,active force,"15 min per concentration, paced at 1 Hz serum-free",,minimum effective concentration,< 0.0001 µM
COc1ccc(C2=NN(C3=NC(=O)C(=Cc4ccc(O)cc4)S3)C(c3ccc(F)cc3)C2)cc1 (stereo not shown),T47D,annexin V-FITC/PI flow cytometry,concentration not given,,total apoptotic cells,30.4%
CC(=O)OC[C@H]1O[C@@H](Sc2sc(C(=O)c3ccc(C)cc3)c(N)c2-c2nc3ccccc3s2)[C@H](OC(C)=O)[C@@H](OC(C)=O)[C@@H]1OC(C)=O,CAKI-1,SRB,"10 µM, 48 h",baseline: untreated,growth,53.7%
COc1cc(CNC(=O)C[C@H](C)CCC=C(C)C)ccc1OCc1cn(-c2ccc(Br)cc2)nn1,HOP-92,SRB,"10 µM, 48 h",,growth percent,45.9%
CC[C@H](C)[C@H](NC(=O)[C@H](CCCNC(=N)N)NC(=O)[C@H](CCC(N)=O)NC(=O)[C@@H](NC(=O)[C@@H](NC(=O)[C@H](CCCNC(=N)N)NC(=O)[C@H](CCCCN)NC(=O)[C@@H](N)Cc1ccccc1)[C@@H](C)CC)C(C)C)C(=O)N[C@@H](CCCCN)C(=O)N[C@@H](CC(=O)O)C(=O)N[C@@H](Cc1ccccc1)C(=O)N[C@@H](CC(C)C)C(=O)N[C@@H](CCCNC(=N)N)C(=O)O,LAD2,agonist,"3 µM, added: Pseudomonas aeruginosa LPS 10 µg/mL, 5 min preincubation",,LPS effect on degranulation,no effect
C=CC(=O)Oc1ccc(Cl)cc1C(=O)Nc1ccc([N+](=O)[O-])cc1Cl,DU-145 (AR-negative),,"concentration not given, 3 days, dose-dependent",,cell growth,decreased

# For quick reference, copied from above:
SMILES,cell line,test,conditions,scale,measurement,result
CC(=O)O[C@H]1C(=O)[C@]2(C)[C@@H](OC(=O)[C@H](N)CSC3CC(=O)N(CCC(=O)Nc4ccc(-c5ccc(/N=N/c6ccc7c(S(=O)(=O)O)cc(S(=O)(=O)O)c(N)c7c6O)c(C)c5)cc4C)C3=O)C[C@H]3OC[C@@]3(OC(C)=O)[C@H]2[C@H](OC(=O)c2ccccc2)[C@]2(O)C[C@H](OC(=O)[C@H](O)[C@@H](NC(=O)c3ccccc3)c3ccccc3)C(C)=C1C2(C)C (stereo partly shown),OVCAR-3,annexin V/PI flow cytometry,"concentration not given, 24 h",,early apoptotic cells,31.5%
